Results of several laboratories.
Parts stem from different laboratories: compare values within a part only.

Study 1
Target: RNA binding protein fox-1 homolog 2, RRM domain, GST-SBP tag (RBFOX2, Homo sapiens, UniProt O43251-10, residues 100-194)
Technique: RNA Bind-n-Seq
Molecule type: RNA
Medium: in vitro
Concentration: 365 nM
Setting: natural RNA segment, single round, ends assumed
Baseline: no-protein control
Reading: higher = stronger binding
Shared flanks, not repeated: GGGAGUUCUACAGUCCGACGAUC … UGGAAUUCUCGGGUGCCAA
Construct (chain): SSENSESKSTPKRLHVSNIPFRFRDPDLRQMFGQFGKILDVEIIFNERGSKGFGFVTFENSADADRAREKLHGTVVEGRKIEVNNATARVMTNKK
Strand | RBNS enrichment (R)
AAAAGGUUUUUGUAUUAGAAUCUGUUUCCUUAAAAAUUGAUUUGACUCCUGUUCUUAAACACAAGUGGUUUUUCCUAAUUCCAGAGGAACUGGACGUCACCAAACAAGGU | 0.419
GCAACUUCCUUAAUUCCUCCUGGUCAUAUAAUAUAUUUCCAUAGUAUCGUAUACUAUUAUGGAGUAUUUAAAAGACUCAAGUUCAAAUUAACAUGCUUCUUUUAUUCUUC | 0.614
AAGAUAGGUUGUAAACUGAAUGCUGUGAUAAUACUCUGUAUUCUUUAUGGAAAAUGUUGUCCUGUACUUACUAGGCAAAACGUAUGAAUCGGAUUAACUGGAAAAUAUAU | 0.352
UAAAGGCUGACAUCUGGGGUCUAGCCUAGCACCUGAAGAUACUUGUGAUGUCUAACUCUGCAUAGCCUUUUCUCUUCAUAUCUGCGGCCUAUCUUUUCCCCUUACAUAUG | 0.839
UGUUCAAAACUCUAAGCCCUACCACCUCCCCUUUAAUAAGCUCUUUAAAUAGUUGAAUCAUUAACAACCUGGUGGGAGGCAAGUCAUUUAAUUGAACCACUAGGAAGUGU | 0.531
GAGACACGGGCCACCAUGAACUUGGCACUGGCUGGUGACAUCCUUGCUGCAGGGCAGGAUGCCCACUGUCAGCUCCUGCGCUUCCAGGCACAUCAACAGCAGGGCAACAA | 0.215
AAAAGCUGUAUUUGAACAGAGCAUGCGUUUAAAGCCCUUAACAAAUUCAUCACAUAAUCUUAAAUUGGAACUUUGCACGGUUCUUAGUCCAAGUGUGCUCUCCUUUCAUA | 1.82
AGAGACUAUUUUAAUCCUUAGCGCAUGGGUCCCGCUUUUGGUGAUAUUUUCACAUUAGGUUGCUGUCUAAUUUUGGAGAGGGUCAGGAAUCGUUCUGGUGCCUUAAUGCA | 9.46
CAUAGAUGAGGGGUAUGCAUUUCUUAAAAAUCCAUGAACCCUCAAUUGUAUGCUUUCAGUAUUGUGUUAUAUGUUUCUAUGGCAACUUUGAAGUCAGUGGUUUAGAAAUG | 0.536
CCUAUGGAAUUGUUUUUAAUCAUCAAAUUUAACCAUUUUCAUAACUGGUUCCUGGAGGUGUGCAGUGCCCCCUUGCCUCUUCAAACCUACAGCUUCUCUUUGCCAUUUGU | 0.59
CCCGUGUCUGUCUGGCUCAUCCUUUCUCCUGCCCAGCCUCACACCUGAUCUCCCUUUCCUGUAGACUGCAGGUUGCUCCUGUCCCUUGAGAUCUCAGUUAGGAGACACUG | 0.404
UGUGGUCUGACUCUAUGAUCGAUCACAGUGACUUAGAUUCAGGAAAGAACAUUAACGUCACAAGUUCUAAGUAGUUUUCACAGCAAAGAAUAUUUGAUAAUGGUUGCACU | 0.388

Study 2
Target: Sal-like protein 4, full length isoform B (SALL4, Homo sapiens, UniProt Q9UJQ4-2, residues 1-616)
Technique: universal PBM
Molecule type: double-stranded DNA, one strand shown
Medium: in vitro
Concentration: not given
Setting: 8-mer, flanks averaged, mean of replicates
Reading: higher = stronger binding
Construct (chain): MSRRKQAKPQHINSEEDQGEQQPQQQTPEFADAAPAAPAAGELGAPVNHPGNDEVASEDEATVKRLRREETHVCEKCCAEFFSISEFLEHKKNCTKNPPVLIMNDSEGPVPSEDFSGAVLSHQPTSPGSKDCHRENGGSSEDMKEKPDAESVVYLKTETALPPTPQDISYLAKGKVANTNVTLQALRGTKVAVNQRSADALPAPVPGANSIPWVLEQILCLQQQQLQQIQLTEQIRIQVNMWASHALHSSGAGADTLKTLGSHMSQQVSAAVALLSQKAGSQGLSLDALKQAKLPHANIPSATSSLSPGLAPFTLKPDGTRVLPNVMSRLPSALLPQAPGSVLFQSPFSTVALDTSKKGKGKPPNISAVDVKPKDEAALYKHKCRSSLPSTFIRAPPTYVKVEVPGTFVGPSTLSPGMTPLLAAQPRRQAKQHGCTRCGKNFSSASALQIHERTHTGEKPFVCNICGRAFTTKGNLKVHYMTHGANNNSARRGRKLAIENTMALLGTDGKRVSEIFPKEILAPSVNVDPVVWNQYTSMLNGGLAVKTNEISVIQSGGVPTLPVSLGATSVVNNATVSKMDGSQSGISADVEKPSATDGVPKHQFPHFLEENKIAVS
Strand | E-score
GGTTAGTA | 0.00156
GAACATTC | 0.148
CGTCCGGC | -0.326
CCGCTCCC | -0.346
GATCACTA | 0.0193
AAATCTAA | 0.252
CGTCTGGC | -0.201
AACAGTTA | 0.0829
CGCTAGAA | -0.122
ATCAAGAC | 0.0249
ACGAAAGG | 0.0356
ACATCTGC | -0.0893
GGTAATAC | 0.144
AAACGTCA | 0.102
TCCCGCAA | -0.0646
ATCTCCTG | -0.0282
CAGGCCAG | -0.288
ATTTACCC | 0.0832
GCGATTAC | -0.0128
ACGGACGT | -0.0873
CTCAAGTC | -0.0273
TAGCCAGA | -0.00456
CCACATTA | 0.193
ACTAGACT | -0.0755
GATGCCGA | -0.142

Study 3
Target: Interferon regulatory factor 7, full length, phosphomimetic (IRF7, Homo sapiens, UniProt Q92985, residues 1-503, S101K/S471D/S472D/S475D/S476D/S477D/S483D/S484D/S487D)
Technique: protein-binding microarray
Molecule type: double-stranded DNA, one strand shown
Medium: in vitro
Concentration: 250 nM
Setting: 60-bp whole probe
Added: salmon DNA 0.4 mg/ml
Baseline: random background probes
Reading: higher = stronger binding
Shared flanks, not repeated: GCCTAGCAC … GTCTTGATTCGCTTGACGCTGCTG
Residues (chain): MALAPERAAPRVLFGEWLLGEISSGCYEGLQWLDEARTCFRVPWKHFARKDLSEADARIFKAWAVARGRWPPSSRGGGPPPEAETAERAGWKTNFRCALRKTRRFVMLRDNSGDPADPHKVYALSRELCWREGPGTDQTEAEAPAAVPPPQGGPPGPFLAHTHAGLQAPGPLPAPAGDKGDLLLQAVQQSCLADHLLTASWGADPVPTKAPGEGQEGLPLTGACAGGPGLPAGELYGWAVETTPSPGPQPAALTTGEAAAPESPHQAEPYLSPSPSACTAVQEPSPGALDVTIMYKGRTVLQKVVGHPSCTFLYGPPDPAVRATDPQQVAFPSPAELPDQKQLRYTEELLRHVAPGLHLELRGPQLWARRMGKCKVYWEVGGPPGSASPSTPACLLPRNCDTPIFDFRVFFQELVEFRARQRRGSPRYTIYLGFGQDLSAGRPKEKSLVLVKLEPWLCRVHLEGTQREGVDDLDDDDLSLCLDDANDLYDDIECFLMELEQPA
Strand | log fluorescence
GACGGTTTCCATATCCTGACGTGCTAG | 4.91 z-score
TTTGGTTTCGGTTCCGGTTAGTGCTAG | 13.4 z-score
CACGGTATCGGTCTCGGGACGTGCTAG | 0.853 z-score
GACGGTATCTACTATCGGGACGTGCTA | -0.389 z-score
GACGGTATCCTTATCCTGGCGTGCTAG | 0.204 z-score
TTTTTTTTTTTTCTGATCCAGTGCTAG | 0.998 z-score
TTAGGTTTCGGAATGGGTTAGTGCTAG | 10.1 z-score
GGCGATTTCAGTATCGAGACGTGCTAG | -0.199 z-score
GCCGGTATCGGTCTCGGGACGTGCTAG | 0.833 z-score
ATGAGTCTCAAAATTAGAGAGTGCTAG | -0.0385 z-score
GACGGTATCCTTCTGCTGACGTGCTAG | -0.241 z-score
TTAGGTTTCGACACTGGGGTAGTGCTA | 3.08 z-score
TTAGAACTTAGTCTCGATTAGTGCTAG | 2.08 z-score
TTAGATATCAGGTATCGATTAGTGCTA | 0.62 z-score
TTAGGTATCCTTAACCTTTAGTGCTAG | -0.285 z-score
GACCGTTCCCTTTTCCTGACGTGCTAG | 2.43 z-score
GACGATATCTGTCTCGAGACGTGCTAG | 0.204 z-score
TTAGAAATCGGGACTGGATTAGTGCTA | -0.118 z-score

Study 4
Target: Prothrombin, mature alpha-thrombin (F2, Homo sapiens, UniProt P00734)
Technique: aptamer microarray, sandwich
Molecule type: DNA with 2'F-ANA
Medium: in vitro
Concentration: 200 nM
Setting: whole 15-mer aptamer, many near background
Added: Cy3 exosite-II aptamer, 400 nM
Reading: higher = stronger binding
Strand: GGTTGGTGTGGTTGG
Modification | mean fluorescence intensity [a.u.]
2'F-ANA at 4 5 7 8 15 | 78.6
2'F-ANA at 1 9 12 14 | 60.7
2'F-ANA at 1 3 4 5 6 7 8 9 10 13 15 | 43.5
2'F-ANA at 4 5 9 15 | 66
2'F-ANA at 3 5 6 7 9 11 12 | 173
2'F-ANA at 2 4 5 6 8 | 72.4
2'F-ANA at 1 2 3 4 7 9 10 | 60.5
2'F-ANA at 4 7 8 9 10 11 12 13 | 109
2'F-ANA at 4 5 11 12 | 111
2'F-ANA at 2 3 4 5 7 8 11 | 91.2
2'F-ANA at 2 3 4 5 7 9 10 11 12 13 15 | 52.4
2'F-ANA at 3 5 6 8 9 10 11 12 13 14 15 | 49.4
2'F-ANA at 3 5 7 12 13 | 205
2'F-ANA at 1 3 4 6 7 11 13 14 15 | 63.7
2'F-ANA at 2 3 7 8 9 13 | 725
2'F-ANA at 3 5 7 8 9 13 15 | 107
2'F-ANA at 2 3 6 8 10 11 15 | 336
2'F-ANA at 3 5 6 8 9 10 11 12 13 15 | 118
2'F-ANA at 3 4 7 8 9 12 13 15 | 608
2'F-ANA at 1 4 5 6 8 12 | 118
2'F-ANA at 1 2 5 6 8 9 10 11 13 15 | 53.2
2'F-ANA at 1 2 7 13 | 120
2'F-ANA at 3 7 12 13 14 15 | 670
2'F-ANA at 2 3 4 6 10 11 13 14 | 132

Study 5
Target: Histone acetyltransferase KAT6A, winged helix 2, GST fusion (KAT6A, Homo sapiens, UniProt Q92794, residues 85-181)
Technique: protein binding microarray
Molecule type: double-stranded DNA, one strand shown
Medium: in vitro
Concentration: not given
Setting: 8-mer, flanks averaged, mean of 2 arrays, mostly near background
Baseline: not given
Reading: higher = stronger binding
Target sequence (chain): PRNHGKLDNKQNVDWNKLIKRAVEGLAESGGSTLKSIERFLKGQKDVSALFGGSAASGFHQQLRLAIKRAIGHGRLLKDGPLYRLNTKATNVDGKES
Strand | E-score
ACCGCGTC | 0.0591
CAGGCGAC | 0.116
TAACTGAA | -0.12
AGCTCACG | -0.077
ACCTGAGA | 0.0186
CTTGTTAC | -0.0945
ATTAGTGG | 0.0676
GTCGGTGA | -0.0878
AACAGCGC | 0.0586
CACAACAA | 0.112
ACCTGTCA | -0.181
CAAAAGAC | 0.00198
AGTTATCC | -0.0887
ATCTTCTG | -0.155
ACTACCAA | 0.01
AATACTTA | -0.158
ATATCAGA | 0.106
CTTGGGCC | 0.089

Repeated from above (study 4):
Modification | mean fluorescence intensity [a.u.]
2'F-ANA at 2 3 7 8 9 13 | 725
2'F-ANA at 3 5 7 8 9 13 15 | 107
2'F-ANA at 2 3 6 8 10 11 15 | 336
2'F-ANA at 3 5 6 8 9 10 11 12 13 15 | 118
2'F-ANA at 3 4 7 8 9 12 13 15 | 608
2'F-ANA at 1 4 5 6 8 12 | 118
2'F-ANA at 1 2 5 6 8 9 10 11 13 15 | 53.2
